# Experimental data of several laboratories.
# Protocols differ between the studies behind these lines. ± gives the spread as reported.
Compound,target or system,assay,system,conditions,quantity,result
Cn1cncc1C1=CN(c2ncnc3[nH]cnc23)CCS1,MDA-MB-231/ATCC,,,,GI50,33.9 µM
C#C[C@@]1(O)[C@@H](CO)O[C@@H](n2cc(F)c3c(N)ncnc32)[C@@H]1O,NCI60 panel,cell growth,,mean over panel,GI50,-6.38 log M
COc1cc(-c2ccc(-c3ccc(C(=N)N)nc3)s2)cc(OC)c1OC,MDA-MB-231/ATCC,NCI five-dose screen,,,GI50,1.85 µM
[Cl-].[Cl-].[Os+2].c1cnc2c(c1)ccc1cccnc12.c1cnc2c(c1)ccc1cccnc12.c1cnc2c(c1)ccc1cccnc12,SK-MEL-28,"cell growth, SRB",,"cool white visible light, 1% O2 hypoxia",GI50,119 µM
O=C(/C=C/c1ccc(O)c(O)c1)OCCc1ccccc1,Toxoplasma gondii,"parasite growth, luciferase reporter","HFF, tachyzoite",72 h,EC50,24.5 µM
Cc1ccc(C(=O)Nc2ccc(CN3CCN(C)CC3)c(C(F)(F)F)c2)cc1C#Cc1cnc2cccnn12,KCL-22 KCL22-T315I,,,48 h,GI50,0.0005 ± 0.0002 µM
O=C(/C=C/C=C/C=C/C1CCCCC1)NC1=C[C@@](O)(/C=C/C=C/C=C/C(=O)NC2=C(O)CCC2=O)[C@@H]2O[C@@H]2C1=O,COV362,"cell growth, CellTiter-Glo",,78 h,GI50,14.6 µM
Cc1c(C(=O)O)ccc2c3n(nc12)[C@@H]1[C@H](C3)N(CC2CC2)[C@@]2(C(=O)Nc3cc(Cl)ccc32)[C@H]1c1cccc(Cl)c1F,JAR (MDM2-amplified),"cell growth, alamarBlue",,120 h,GI50,0.019 µM
Cc1cn(-c2cc(NC(=O)c3ccc(C)c(Nc4nccc(-c5cccnc5)n4)c3)cc(C(F)(F)F)c2)cn1,KCL-22 wild type,,,48 h,GI50,0.00077 ± 0.002 µM
S=C(S)N1CCCC1,Toxoplasma gondii,parasite growth,"HFF, bradyzoite, alkaline-induced",,EC50,622 µM

# Repeated from above:
Compound,target or system,assay,system,conditions,quantity,result
S=C(S)N1CCCC1,Toxoplasma gondii,parasite growth,"HFF, bradyzoite, alkaline-induced",,EC50,622 µM
